# Results pooled from the literature.
# Every numbered part comes from another study and shows a few of its results, in no order. Positions count from the first letter of the parent shown.

# Block 1 — method: RNA Bind-n-Seq; molecule type: RNA; medium: in vitro; concentration: 1 µM; setting: whole 134-nt RNA, ends assumed; added: 150 mM KCl; relative to: input library; reading: higher = stronger binding
# Target: Ras GTPase-activating protein-binding protein 1, RRM domain (G3BP1, Homo sapiens, UniProt Q13283)
# UniProt Q13283, sequence (whole entry, looked up): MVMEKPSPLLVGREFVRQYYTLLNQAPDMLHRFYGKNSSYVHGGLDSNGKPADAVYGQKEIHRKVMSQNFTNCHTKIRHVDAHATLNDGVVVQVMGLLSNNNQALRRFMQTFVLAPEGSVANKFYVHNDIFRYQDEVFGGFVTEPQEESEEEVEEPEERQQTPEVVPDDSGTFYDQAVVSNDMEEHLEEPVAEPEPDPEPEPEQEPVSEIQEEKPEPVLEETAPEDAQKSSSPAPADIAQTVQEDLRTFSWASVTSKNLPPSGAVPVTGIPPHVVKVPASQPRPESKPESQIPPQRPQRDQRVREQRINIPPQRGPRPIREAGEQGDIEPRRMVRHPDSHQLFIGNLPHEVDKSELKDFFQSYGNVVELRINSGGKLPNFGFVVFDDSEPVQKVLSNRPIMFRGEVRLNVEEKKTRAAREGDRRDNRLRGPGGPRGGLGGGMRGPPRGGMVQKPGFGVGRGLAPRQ
# Shared flanks, not repeated: GGGAGUUCUACAGUCCGACGAUC … UGGAAUUCUCGGGUGUCAAGG
Sequence,log2 enrichment
AAGUCCUGUGCUACACAUCGUAUGUACCGAAUCGGGUUUGGGUUUGGGAAAAAGGGAAAGUAUUAUGUUACGCCGUUCGGAUCUGCACUU,0.44
GCAGGAAGUAAAAACAAAUGGAAAUGCUUAAAAUAGUGGCAGGGGUGGGGGUUGCUAAGGAAAGGGUGGGAUGGGAGUGGGUAAAGAGUU,1.37
UCUCAGCAGGCGCAUCUACACUAGUGACCUGAGGAGAGAAACCCUAACCCCACAAUGGCUGCAUCUUCUCUGAAGACGAGACUGAUGCUC,-0.0875
UGGGAGGUGGAUUUUGUUUAUUUUUUUAGCUCAUUUCCAGGGGUGGGAAUUUUUUUUUAAUAUUUGUCAUGAAUAAAGUUGUUUUUGAAA,1.34
CAAGUCCUGUGCUACACAUCGUAUGUACCGAAUCGGGGAAAGGGGUGGGGAGGGGAAAGUAUUAUGUUACGCCGUUCGGAUCUGCACUUC,0.988
CUGUGCUACACAUCGUAUGUACCGAAUCGGUUUUUUUGGGUUUUUUUGGGGUUUUUUUGGGGAAAGUAUUAUGUUACGCCGUUCGGAUCU,-0.3

# Block 2 — method: protein binding microarray; molecule type: double-stranded DNA, one strand shown; medium: in vitro; concentration: not given; relative to: not given; reading: higher = stronger binding
# Target: Histone acetyltransferase KAT6A, both winged helices, GST fusion (KAT6A, Homo sapiens, UniProt Q92794, residues 1-181)
# Setting: 8-mer, flanks averaged, mean of 2 arrays, mostly near background
# Residues (chain): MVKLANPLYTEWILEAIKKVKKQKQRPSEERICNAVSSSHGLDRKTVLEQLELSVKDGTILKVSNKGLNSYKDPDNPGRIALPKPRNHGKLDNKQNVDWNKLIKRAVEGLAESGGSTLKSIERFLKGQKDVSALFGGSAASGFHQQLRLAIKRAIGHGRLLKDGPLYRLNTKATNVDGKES
Sequence,E-score
ACGTCATG,0.0683
ACGTATCG,0.0953
CTTGTGAC,0.0623
ACTGAGAC,-0.0633
ACCCATAG,-0.248
TCAAGAGA,-0.154
ATATGTGG,-0.177

# Block 3 — target: CCNE2, cyclin fold, Cln2 fusion (human); method: yeast growth competition, sequencing; medium: yeast; setting: strong parent motif; relative to: not given; reading: higher = stronger binding
# Starting sequence: PKN2 docking peptide (human); VSAVRKLDFSDTM
Variant,normalised enrichment score
R5N,-0.212
V4Y,0.982
R5E,-0.171
T12L,5
F9P,0.312
T12M,4.83
D11M,5.2

# Other studies, line by line
Substance,target,assay,test system,conditions,scale,quantity,result
"PhoQ, residues 284 288 289 292 302 303 AAQSYM","PhoP, residues 12 14 15 18 19 NFCKL (Escherichia coli, UniProt P23836)","Sort-seq, measured: YFP reporter",E. coli,"PhoQ-PhoP variant library, added: 10 µM Mg2+","relative to: high Mg2+ state, higher = stronger signaling",fold induction,1

# A few entries again (block 3):
Variant,normalised enrichment score
T12L,5
